Published values gathered from unrelated publications.
Numbered parts are unrelated; each lists some results of a single study. Positions count from the first letter of the parent shown.

Block 1
Target: CCNF, cyclin fold, Cln2 fusion (human)
Technique: yeast growth competition, sequencing
Sample: yeast
Notes: strong parent motif
Relative to: not given
Reading: higher = stronger binding
Starting sequence: PKMYT1 docking peptide (human); SFEPRNLLSLFED
| Substitution | normalised enrichment score |
| --- | --- |
| SFEPRNLNSLFED [L8N] | 1.11 |
| CFEPRNLLSLFED [S1C] | 1.1 |
| GFEPRNLLSLFED [S1G] | 1.54 |
| SFEPRNLESLFED [L8E] | -3.4 |
| SFEPTNLLSLFED [R5T] | -0.452 |
| SFENRNLLSLFED [P4N] | -0.693 |
| SFEPRNLLFLFED [S9F] | 2.65 |
| SFEPRNLLSGFED [L10G] | 0.438 |
| SFEPRNLLSIFED [L10I] | 0.448 |
| SFEPRNLLSLFVD [E12V] | 0.855 |
| SFEPLNLLSLFED [R5L] | -0.437 |
| SFEPRNLLSLFEE [D13E] | 0.721 |
| SFEPRNLLWLFED [S9W] | 1.49 |
| SFKPRNLLSLFED [E3K] | 3.52 |
| SFEPRMLLSLFED [N6M] | -0.634 |
| SFEPRNLLSRFED [L10R] | 0.643 |
| SFECRNLLSLFED [P4C] | 0.0627 |

Block 2
Target: Interferon regulatory factor 7, full length, phosphomimetic (IRF7, Homo sapiens, UniProt Q92985, residues 1-503, S101K/S471D/S472D/S475D/S476D/S477D/S483D/S484D/S487D)
Technique: protein-binding microarray
Molecule type: double-stranded DNA, one strand shown
Sample: in vitro
Concentration: 250 nM
Notes: 60-bp whole probe
Together with: salmon DNA 0.4 mg/ml
Relative to: random background probes
Reading: higher = stronger binding
Constant ends, left off below: GCCTAGCAC … GTCTTGATTCGCTTGACGCTGCTG
Residues (chain): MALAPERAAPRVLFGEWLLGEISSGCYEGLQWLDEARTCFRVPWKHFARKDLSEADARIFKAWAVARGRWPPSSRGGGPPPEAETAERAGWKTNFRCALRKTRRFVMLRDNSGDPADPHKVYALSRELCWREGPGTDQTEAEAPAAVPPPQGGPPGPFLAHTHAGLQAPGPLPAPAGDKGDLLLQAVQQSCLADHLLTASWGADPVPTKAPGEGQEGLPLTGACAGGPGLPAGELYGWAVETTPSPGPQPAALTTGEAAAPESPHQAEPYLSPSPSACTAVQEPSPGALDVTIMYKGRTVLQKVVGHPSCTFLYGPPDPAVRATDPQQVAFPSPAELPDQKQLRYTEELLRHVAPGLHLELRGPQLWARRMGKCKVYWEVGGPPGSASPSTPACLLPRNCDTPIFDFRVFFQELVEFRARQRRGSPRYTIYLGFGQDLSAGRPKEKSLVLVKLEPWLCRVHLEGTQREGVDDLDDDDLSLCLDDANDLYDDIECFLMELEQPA
| Oligonucleotide | log fluorescence [z-score] |
| --- | --- |
| TCATTTCTCCTTTCGGAACTGTGCTAG | 2.88 |
| GAAGGTATCGGGTTTCGGGACGTGCTA | 3.3 |
| CTGAATGTCCTCCTCTCTCTGTGCTAG | 0.126 |
| GAAGGTTCCCTTTTCCTGACGTGCTAG | 3.77 |
| TCAATTTCCACTTTGACACTGTGCTAG | 2.39 |
| TTAGATATCAGGACTGGATTAGTGCTA | 0.00983 |
| TTAGCTCTCAGTCTCGATTAGTGCTAG | 0.92 |
| CAGGAAATCAACTTTTTTTAAGTGCTA | -0.256 |
| GACGGTTGCGGTTCCGGGACGTGCTAG | 0.722 |
| GACGGACTGCTTATCCCGACGTGCTAG | -0.219 |
| TTAGGTATCGGTTTGGGTTAGTGCTAG | 5.55 |
| GCCGAACTGGGGTTTCGAGACGTGCTA | 1.96 |
| TTAGAACTGGGGACTAGATTAGTGCTA | -0.418 |
| GACGGACTGGGACTGGGGATGTGCTAG | -0.403 |
| TATCAGTAGGTAAGGAAAAGGTGCTAG | -0.132 |

Block 3
Target: RING finger protein unkempt homolog, zinc fingers 1-6, GST-SBP tag (UNK, Homo sapiens, UniProt Q9C0B0, residues 30-357)
UniProt Q9C0B0, sequence (30-357, looked up): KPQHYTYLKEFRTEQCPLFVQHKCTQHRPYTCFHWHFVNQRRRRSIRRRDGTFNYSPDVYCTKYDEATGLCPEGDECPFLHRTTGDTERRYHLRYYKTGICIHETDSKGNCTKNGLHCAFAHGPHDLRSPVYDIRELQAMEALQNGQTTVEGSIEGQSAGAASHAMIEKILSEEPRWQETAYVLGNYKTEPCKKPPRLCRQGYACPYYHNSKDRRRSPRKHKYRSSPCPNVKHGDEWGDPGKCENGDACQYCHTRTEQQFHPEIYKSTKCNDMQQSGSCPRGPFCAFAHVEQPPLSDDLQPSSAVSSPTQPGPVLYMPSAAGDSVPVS
Technique: RNA Bind-n-Seq
Molecule type: RNA
Sample: in vitro
Concentration: not given
Notes: RNA with constant flanks, human and mouse sites, ends assumed
Relative to: input RNA pool
Reading: higher = stronger binding
Constant ends, left off below: GGGAGUUCUACAGUCCGACGAUC … CAACAGAGGAUUGAGCAUCA
| Oligonucleotide | bound/input enrichment |
| --- | --- |
| CCCUCCAGAGCUCUCUUGAGUGCUGAGGCUUCGGUCUGACUUGCAGCCGCUGCAGAGAUAACGCCUGAGUCCUGAAUUGCUUUACCUAUUGCAAGUUAAAAGUCUACAGUUCAAACAAAA | 0.178 ratio |
| CAGGAAUGCGGGGAGGCCUUUGCUCGUAGGUCUGAGCUCAUUGAGCACCAGAAGAUUCAUGAUAGAGAAAGACCUUCUGGAAGCCGACAUUAUGAGCGCUCUGUCAUCCGCAGCCUUGCG | 0.138 ratio |
| GAGCACAGCAAGACCCCUGAGGAGAGGAGCCUUCCUUCCGACCUGGCCUUCAACGGGGACCUGGCUAAGGCAGCCAGCUCGGAGCUACCUGCUGAUAUUUCCAAGCCCUGGAUUCCCUCA | 0.125 ratio |
| CAAGCCAGUCCUGUUGUGAUUUGUCCAUCGAGUGUGUGUGUGUGUGUGUGUGACCAUCAGUUUAGCCCAGAGUGGACAGGGUCCAGGCAUACCCACCCUGGCCCAUGCUCCUCUAGGACA | 0.298 ratio |
| ACUGGAAUGUCAAACUCCUCAAAGUUGACCAGGAUAGCGCUUUGCACAAUGAUCUUCAGAUCCUGAAGGAGAAGGAAGGAGCAGACUUCAUCCUACUUAACUUCUCCUUUAAAGAUAACU | 0.118 ratio |
| UUUGAGAAGAAGGAGAAAAAUAAAGAGGCAAUAUAUAGUGGAUAUAUUAGAAACAGAAAGCCCUCUGAUUCUGUUCACAUUACAAAUGAUGAUGAAAGAUUUCUACAUCAUCUUAUCAUA | 1.44 ratio |
| GUAGGUCAGGACCCUGUCAUGAGACAGGUGGAAGGAAAAAACCCAGUCACAAUAUUUUCUCUAGCAACAAAUGAGAUGUGGCGAUCAGGGGAUAGUGAAGUAUACCAAAUGGGUGACGUU | 3.82 ratio |
| CCUUUAUAUCCUCAGCCCAAGAGACGGUGUUCCCCUGCGACCUCCAAGCCUGGAAUUGUGCAUAGCCUGGGUCUUGUAUCUUUGUAUAACGGAUGUUAUUUGUACGAAGGGCAGUUCGUA | 0.469 ratio |

Block 4
Target: RNA binding protein fox-1 homolog 2, RRM domain, GST-SBP tag (RBFOX2, Homo sapiens, UniProt O43251-10, residues 100-194)
Technique: RNA Bind-n-Seq
Molecule type: RNA
Sample: in vitro
Concentration: 365 nM
Notes: natural RNA segment, single round, ends assumed
Relative to: no-protein control
Reading: higher = stronger binding
Constant ends, left off below: GGGAGUUCUACAGUCCGACGAUC … UGGAAUUCUCGGGUGCCAA
| Oligonucleotide | RBNS enrichment (R) |
| --- | --- |
| UACCGAGUACACAGAGUACCCAAGUGAAGAGAACGUCAUGAGUGUAAGUGCAAAUCAGUGGAAGGAGCGGCAAACUGGGACAUGCAGAAUUGAAUUUGCUCAAAAAAGAU | 0.599 |
| UUCCAAACACCACACGUUGAAAGCAUUUAUAAAUCCAAGUCUGAAACUCUGCGCUCUAGUACUGCUGUUAAGAUACACAACUUGUUUCUUAGUUCAUAUAAUCUCGGGAU | 1.58 |
| CGAUGCGGGUCCUAGGAGAAAAAGUCCUACUUUUCUGGGUCCCCAGGUGCAGCACCUCCCGGAGACUGUUUCUCCCAUGGCCUCCUGAGUGAUGGGCCCUGCCUCCCUGU | 0.388 |
| UCCCACACUGACAACUUGGCUUCCUUUCUGUGUGUUCAGUCUGUUGUCUGAACUAACACUCCCGCGAGCACUAUACUCUUUAUACUCUGAUCCCCCUAGUUCAUCUUAAA | 0.54 |
| UCUUAGCACAUCCUCUGUUCUCUACCUGUCAUGCUUCAAGAGUUCCAGCUGGCCUGCUGUGAAGCCAGUAGCUAUUUUAAAAGUGCUGGCUGCAGGAUUAAGCCAACCCU | 0.55 |
| CUCUGUACACAUUUUUAAACCUGGCAAAAGAUGAAGAGAAUAUUGUAAAUAUAAAAGUUUAACUGUUGGUUGUGCCUGCUCUGUUGUGGGGAGGGCGGUCUCUAAAGAAA | 0.711 |
| GCAACUGCUAAACUAUGCAGUUUUUCUUGAAGGAACUAAAAGCAACUAGCUCCCUAAUGGUCUAUAAUUUUAUUUCUUUUGGCUUAAAGUGAAAAAGAAGAAAUAGAGAA | 0.489 |
| UUUUACUUUUUAUUACAUAAAAAUAUUAAAAAAUAAAUAAAAAAAAUAAAAUUUUAAACUAACUUAACCUGCCUGGAGUUUCCUCCUUGGAGACUAGAGUGGGGUGACAG | 1.05 |

For quick reference, copied from above (block 1):
| Substitution | normalised enrichment score |
| --- | --- |
| SFEPTNLLSLFED [R5T] | -0.452 |
| SFENRNLLSLFED [P4N] | -0.693 |
| SFEPRNLLFLFED [S9F] | 2.65 |
| SFEPRNLLSGFED [L10G] | 0.438 |
| SFEPRNLLSIFED [L10I] | 0.448 |
| SFEPRNLLSLFVD [E12V] | 0.855 |
